Published values from different studies.
Lines come from different studies, so protocols differ. Several values in a cell are separate wells, animals, samples, runs or records. Numbers after ± are the reported error.
Sequence of UniProt P53778 (whole entry, looked up): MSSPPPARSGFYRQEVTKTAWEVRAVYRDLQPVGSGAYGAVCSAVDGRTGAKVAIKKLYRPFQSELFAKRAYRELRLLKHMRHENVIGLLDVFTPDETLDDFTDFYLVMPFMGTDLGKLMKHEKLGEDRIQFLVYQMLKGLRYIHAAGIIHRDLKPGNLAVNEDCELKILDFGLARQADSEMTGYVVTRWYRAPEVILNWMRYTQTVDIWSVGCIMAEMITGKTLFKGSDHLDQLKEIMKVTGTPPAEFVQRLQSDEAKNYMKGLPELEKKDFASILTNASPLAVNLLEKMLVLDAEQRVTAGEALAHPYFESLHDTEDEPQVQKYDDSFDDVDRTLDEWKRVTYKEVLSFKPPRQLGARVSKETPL
Sequence of UniProt O00574 (whole entry, looked up): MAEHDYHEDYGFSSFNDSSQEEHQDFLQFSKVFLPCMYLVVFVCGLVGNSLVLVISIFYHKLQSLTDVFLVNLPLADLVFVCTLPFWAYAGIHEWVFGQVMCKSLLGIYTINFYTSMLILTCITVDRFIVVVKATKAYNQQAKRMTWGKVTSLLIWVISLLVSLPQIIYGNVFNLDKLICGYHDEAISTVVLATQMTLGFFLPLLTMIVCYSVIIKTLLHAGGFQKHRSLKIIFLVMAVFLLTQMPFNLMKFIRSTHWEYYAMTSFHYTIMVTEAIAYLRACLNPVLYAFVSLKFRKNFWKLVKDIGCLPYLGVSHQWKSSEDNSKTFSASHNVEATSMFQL
Sequence of UniProt Q15046 (whole entry, looked up): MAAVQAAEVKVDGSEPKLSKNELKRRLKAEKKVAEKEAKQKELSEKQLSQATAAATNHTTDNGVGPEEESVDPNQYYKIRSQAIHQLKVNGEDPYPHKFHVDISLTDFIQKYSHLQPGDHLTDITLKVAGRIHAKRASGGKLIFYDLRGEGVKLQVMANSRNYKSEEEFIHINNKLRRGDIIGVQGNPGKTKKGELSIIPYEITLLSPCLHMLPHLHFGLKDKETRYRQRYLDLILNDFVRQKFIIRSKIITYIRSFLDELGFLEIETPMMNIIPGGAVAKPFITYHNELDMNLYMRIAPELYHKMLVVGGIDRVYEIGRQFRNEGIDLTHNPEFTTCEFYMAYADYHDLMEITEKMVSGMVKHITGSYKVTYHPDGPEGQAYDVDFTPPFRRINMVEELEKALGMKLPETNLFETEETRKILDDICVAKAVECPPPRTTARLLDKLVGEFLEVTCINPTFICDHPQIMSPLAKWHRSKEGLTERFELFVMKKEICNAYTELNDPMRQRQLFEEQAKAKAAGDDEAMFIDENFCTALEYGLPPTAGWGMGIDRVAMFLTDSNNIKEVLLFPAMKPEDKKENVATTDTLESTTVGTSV
Sequence of UniProt P08183 (whole entry, looked up): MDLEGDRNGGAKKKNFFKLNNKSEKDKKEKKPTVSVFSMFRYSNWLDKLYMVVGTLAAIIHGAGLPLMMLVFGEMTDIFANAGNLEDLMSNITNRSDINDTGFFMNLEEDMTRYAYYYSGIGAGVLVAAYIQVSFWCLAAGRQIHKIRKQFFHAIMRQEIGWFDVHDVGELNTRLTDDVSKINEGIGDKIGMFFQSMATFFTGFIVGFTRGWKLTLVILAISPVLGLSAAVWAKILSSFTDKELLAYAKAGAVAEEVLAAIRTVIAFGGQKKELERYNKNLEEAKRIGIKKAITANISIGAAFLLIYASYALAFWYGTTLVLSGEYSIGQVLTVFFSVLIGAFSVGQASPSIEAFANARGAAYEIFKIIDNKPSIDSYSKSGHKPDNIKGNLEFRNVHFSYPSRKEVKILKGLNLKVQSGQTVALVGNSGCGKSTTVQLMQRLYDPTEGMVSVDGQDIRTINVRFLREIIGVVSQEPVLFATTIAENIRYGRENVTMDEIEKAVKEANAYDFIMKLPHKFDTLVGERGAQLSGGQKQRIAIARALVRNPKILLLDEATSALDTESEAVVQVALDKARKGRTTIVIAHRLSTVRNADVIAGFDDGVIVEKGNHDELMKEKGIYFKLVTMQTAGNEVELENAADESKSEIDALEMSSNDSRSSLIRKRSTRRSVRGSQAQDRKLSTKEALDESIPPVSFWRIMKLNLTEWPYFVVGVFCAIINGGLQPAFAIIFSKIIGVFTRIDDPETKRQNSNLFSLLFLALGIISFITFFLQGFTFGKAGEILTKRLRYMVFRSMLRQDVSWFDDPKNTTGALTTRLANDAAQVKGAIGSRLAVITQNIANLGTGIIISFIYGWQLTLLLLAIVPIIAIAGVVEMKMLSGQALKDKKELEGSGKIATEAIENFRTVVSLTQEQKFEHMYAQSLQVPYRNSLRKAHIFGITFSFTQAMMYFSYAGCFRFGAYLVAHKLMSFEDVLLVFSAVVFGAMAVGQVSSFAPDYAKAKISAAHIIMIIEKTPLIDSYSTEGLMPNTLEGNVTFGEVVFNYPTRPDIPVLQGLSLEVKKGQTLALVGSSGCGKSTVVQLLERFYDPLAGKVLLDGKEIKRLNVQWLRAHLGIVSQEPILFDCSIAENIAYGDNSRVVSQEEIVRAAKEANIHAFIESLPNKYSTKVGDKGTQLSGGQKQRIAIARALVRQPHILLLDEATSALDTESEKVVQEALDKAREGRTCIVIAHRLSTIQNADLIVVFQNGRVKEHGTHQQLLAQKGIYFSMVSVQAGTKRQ
Sequence of UniProt P51681 (whole entry, looked up): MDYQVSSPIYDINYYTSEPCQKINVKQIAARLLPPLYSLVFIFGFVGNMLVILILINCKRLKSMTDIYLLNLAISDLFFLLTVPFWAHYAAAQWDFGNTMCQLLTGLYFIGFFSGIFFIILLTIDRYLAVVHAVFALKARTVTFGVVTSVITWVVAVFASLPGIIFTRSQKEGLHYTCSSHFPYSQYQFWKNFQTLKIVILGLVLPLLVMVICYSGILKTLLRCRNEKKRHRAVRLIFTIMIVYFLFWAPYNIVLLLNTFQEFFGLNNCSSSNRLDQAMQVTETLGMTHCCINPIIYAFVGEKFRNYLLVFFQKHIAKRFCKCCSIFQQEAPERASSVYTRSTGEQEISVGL

SMILES	target or system	test	system	setting	scale	endpoint	result
Cc1cc(C(=O)NC(C)(C)COc2cccc3c2C(N)=NS(=O)(=O)N3)cc(C)n1	Salmonella typhimurium	Ames test, initial	TA100	5.00 µg/plate, together with: rat liver S9	baseline: solvent control	revertant ratio	1.4
CC[C@H](C)[C@@H]1NC(=O)[C@@H]2CCCN2C(=O)[C@H](CC(C)C)NC(=O)[C@H](CC(C)C)NC(=O)CNC(=O)[C@@H](NC(=O)[C@@H](NC(=O)[C@H](CC(=O)O)NC(=O)CNC(=O)[C@@H](NC(=O)[C@H](C)NC(=O)CNC(=O)[C@H](CCCCN)NC(=O)[C@H](CC(C)C)NC(=O)[C@H](CC(C)C)NC(=O)[C@H](CCCCN)NC(=O)CNC(=O)[C@@H](NC(=O)[C@@H](N)CC(C)C)C(C)C)C(C)C)C(C)C)CSSC[C@@H](C(=O)O)NC1=O	–	RNA-seq, measured: Tap2	mouse, traumatic brain injury model, frontal cortex and hippocampus	dose not given	baseline: TBI alone	log2 fold change	-1.11
[Cl-].[Cl-].[Pt+2].[Ru+2].c1ccc(-c2nc3cc4ccccc4cc3nc2-c2ccccn2)nc1.c1cnc2c(c1)ccc1cccnc12.c1cnc2c(c1)ccc1cccnc12	Danio rerio	–	embryos	30 µM, 72 h	–	hatching rate	46.7 ± 4.6%
COc1ccc(N2C(=O)N(c3c(C)cccc3Cl)Cc3cnc(Nc4ccc(C5CCN(C)CC5)cc4OC)nc32)nc1	MAPK12 (Homo sapiens, UniProt P53778)	kinase activity, inhibitor	–	0.5 µM, kinase P38-GAMMA	–	inhibition	2.79%
COc1cc2ncnc(Nc3cccc(Cl)c3)c2cc1OC	HaCaT	–	–	0.015 µM, 60 h	–	viability	109% and 102% and 103%
COc1ccc2c(c1OC)C(=O)c1c(cc(C)c(O)c1OC)C2=O	HepaRG co-cultured with HK-2	MTT	–	266.67 µM, 24 h	baseline: untreated control	cell viability	74.7 ± 8.89%
C[C@H]1CN(c2n[nH]c3nc(N[C@H]4CC[C@H](NS(=O)(=O)CCC(F)(F)F)CC4)ncc23)CCO1	Lysine--tRNA ligase (KARS1, Homo sapiens, UniProt Q15046)	Kinobeads competition, measured: KARS	–	0.032 µM, unit not given	baseline: vehicle	remaining binding	1.01
CC(=O)N1CCC(C(=O)N2CCN3C(=O)c4cc(-c5ccccc5)ccc4NC(=O)C3C2)CC1 (stereo not drawn)	Salmonella typhimurium	–	TA100	15.8 µg/plate, without S9	–	revertants per plate	88
CC(C)CC(=O)OC[C@H]1O[C@@](C#N)(c2ccc3c(N)ncnn23)[C@H](O)[C@@H]1O	ABCB1 (Homo sapiens, UniProt P08183)	–	Caco-2	0.9 µM, 2 h	–	efflux ratio	> 3.18
O=C1c2ccccc2C(=O)c2ccccc21	HepaRG co-cultured with HK-2	MTT	–	266.67 µM, 48 h	baseline: untreated control	cell viability	24.3 ± 4.19%
OC(CCN1CC=C(c2ccc(F)cc2)CC1)c1ccc(F)c2ccccc12 (stereo not drawn)	Salmonella typhimurium	genotoxicity, SOS/umu test	TA1535/pSK1002	0.008 mg/mL, 4 h, with S9, full range	–	induction factor	1.1
O=c1ccc2ccccc2o1	NHEK	cell count	–	concentration not given, 24 h, GSH, ROS, ATP, MMP panel	–	chance response	0.01%
CC(=O)OC[C@H]1O[C@@H](Oc2cc(O)cc3cc4oc(C)cc(=O)c4c(O)c23)[C@H](O)[C@@H](O)[C@@H]1O	HepaRG co-cultured with HK-2	MTT	–	33.33 µM, 24 h	baseline: untreated control	cell viability	119 ± 14.3%
CN1CCN(c2cc(-c3ccncc3)c(-c3ccc4ccccc4c3)nn2)CC1	CXCR6 (Homo sapiens, UniProt O00574)	antagonist, FLIPR	–	10 µM	–	inhibition	11%
COc1cc(Nc2ncc(F)c(Nc3ccc4c(n3)NC(=O)C(C)(C)O4)n2)cc(OC)c1OC	CCR5 (Homo sapiens, UniProt P51681)	–	–	–	–	IC50	> 10 µM

Excerpt of the above:
SMILES	target or system	test	system	setting	scale	endpoint	result
COc1ccc(N2C(=O)N(c3c(C)cccc3Cl)Cc3cnc(Nc4ccc(C5CCN(C)CC5)cc4OC)nc32)nc1	MAPK12 (Homo sapiens, UniProt P53778)	kinase activity, inhibitor	–	0.5 µM, kinase P38-GAMMA	–	inhibition	2.79%
Cc1cc(C(=O)NC(C)(C)COc2cccc3c2C(N)=NS(=O)(=O)N3)cc(C)n1	Salmonella typhimurium	Ames test, initial	TA100	5.00 µg/plate, together with: rat liver S9	baseline: solvent control	revertant ratio	1.4
